Results of several laboratories.
Each line is one published result; not all experiments were run side by side.

Compound | organism | test | system | conditions | MIC
N=C(N)NCCC[C@H](NC(=O)[C@H](CCCNC(=N)N)NC(=O)[C@H](Cc1ccccc1)NC(=O)[C@H](CO)NC(=O)[C@H](Cc1ccccc1)NC(=O)[C@H](Cc1c[nH]c2ccccc12)NC(=O)[C@H](Cc1ccccc1)NC(=O)[C@H](CO)NC(=O)[C@H](Cc1ccccc1)NC(=O)[C@H](CCCNC(=N)N)NC(=O)[C@@H](N)CCCNC(=N)N)C(N)=O | Lacticaseibacillus rhamnosus |  | 1.038, probiotic strain | 24 h, 37 °C, tested up to 128 µM | 128 µM
CC(C)CCCCCCCCC/C=C/C(=O)N[C@@H](CC(N)=O)C(=O)N[C@H]1CNC(=O)[C@@H]2CCCN2C(=O)[C@H](C(C)C)NC(=O)[C@@H](CN)NC(=O)CNC(=O)[C@H](CC(=O)O)NC(=O)CNC(=O)[C@H](CC(=O)O)NC(=O)[C@H](CC(=O)O)NC(=O)[C@H]2CCCCN2C1=O | Enterococcus faecium | broth microdilution | daptomycin-resistant isolate, Mueller-Hinton broth, Mg2+ 10 mg/L | 16 h, added: Ca2+ 5 mM | 2 µg/mL
CC(C)C[C@H](NC(=O)[C@H](Cc1ccccc1)NC(=O)[C@H](CCC(N)=O)NC(=O)[C@H](Cc1ccc(O)cc1)NC(=O)[C@H](CCCCN)NC(=O)[C@@H]1CCCN1C(=O)[C@H](CCCNC(=N)N)NC(=O)[C@H](CCC(N)=O)NC(=O)[C@H](Cc1c[nH]c2ccccc12)NC(=O)[C@H](CS)NC(=O)[C@H](Cc1c[nH]c2ccccc12)NC(=O)[C@H](Cc1ccccc1)NC(=O)[C@H](CCCNC(=N)N)NC(=O)[C@H](CCCCN)NC(=O)[C@H](CCCCN)NC(=O)[C@H](CCCCN)NC(=O)[C@@H](NC(=O)[C@@H](NC(=O)[C@H](CC(C)C)NC(=O)[C@@H](N)CO)C(C)C)[C@@H](C)O)C(=O)O | Staphylococcus haemolyticus |  |  |  | 12.5 µg/mL
CC(=O)N[C@@H](CC(C)C)C(=O)N[C@H]1CSSC[C@@H](C(=O)N2CCC[C@H]2C(N)=O)NC(=O)[C@H](CCCCN)NC(=O)[C@H](C(C)C)NC(=O)[C@H](CCCCN)NC(=O)CNC(=O)[C@H](CC(C)C)NC(=O)[C@H](Cc2ccccc2)NC(=O)[C@H](CCCCN)NC(=O)[C@H](CC(C)C)NC(=O)[C@H](CCC(=O)O)NC(=O)[C@H](Cc2ccccc2)NC(=O)[C@H](CCCNC(=N)N)NC(=O)[C@H](CCCCN)NC(=O)[C@H](CC(C)C)NC(=O)[C@H](CC(=O)O)NC(=O)[C@@H]2CCCN2C(=O)[C@H](CCCCN)NC(=O)[C@H](C(C)C)NC(=O)[C@H](CCCCN)NC(=O)[C@H](CCCCN)NC(=O)[C@H](CCCCN)NC1=O | Pseudomonas fluorescens | broth dilution | CGMCC strain | 24 h | 1.25 to 2.5 µM
COc1ccc(C2=[N+]([O-])c3ccccc3N3CCCN=C23)cc1 | Prevotella spp. |  |  |  | 0.125 to 2 µg/mL
CC(C)CCCCCCCCC/C=C/C(=O)N[C@@H](CC(=O)O)C(=O)N[C@H]1CNC(=O)[C@@H]2CCCN2C(=O)[C@H](C(C)C)NC(=O)[C@@H](CN)NC(=O)CNC(=O)[C@H](CC(=O)O)NC(=O)CNC(=O)[C@H](CC(=O)O)NC(=O)[C@H](CC(=O)O)NC(=O)[C@H]2CCCCN2C1=O | Enterococcus faecium | broth microdilution | daptomycin-resistant isolate, Mueller-Hinton broth, Mg2+ 10 mg/L | 16 h, added: Ca2+ 0 mM | > 128 µg/mL
CC(C)Oc1ccc(B(O)O)c(F)n1 | Enterobacter cloacae | bacterial growth | AmpC overproducer clinical isolate | without cefotaxime | 1020 µg/mL
C[N+]1=C2C(c3ccccc3)=[N+]([O-])c3ccccc3N2CCC1 | Prevotella spp. |  |  |  | 1 to 8 µg/mL
CC(C)C[C@H](NC(=O)[C@H](CCCCN)NC(=O)[C@H](C)NC(=O)[C@H](CC(C)C)NC(=O)[C@H](CCCCN)NC(=O)[C@H](CCC(N)=O)NC(=O)[C@H](CCCCN)NC(=O)[C@H](CC(C)C)NC(=O)[C@H](CCCCN)NC(=O)[C@H](CCC(N)=O)NC(=O)[C@H](CC(C)C)NC(=O)[C@H](CCCCN)NC(=O)[C@H](C)NC(=O)[C@H](CCCCN)NC(=O)[C@H](CC(C)C)NC(=O)[C@H](CCCCN)NC(=O)[C@H](C)NC(=O)[C@H](CC(C)C)NC(=O)[C@H](CCCCN)NC(=O)[C@H](CCC(N)=O)NC(=O)[C@@H](N)CCCCN)C(N)=O | Salmonella enterica | broth microdilution | ATCC 700720 | 24 h | 6.2 µM
[O-][N+]1=C(Cc2ccccc2)C2=NCCCN2c2ccccc21 | Prevotella spp. |  |  |  | 0.5 to 4 µg/mL
CC1(C)C(NC(=O)C(=NOC2(C(=O)O)CC2)c2csc(N)n2)C(=O)N1OS(=O)(=O)O (stereo not shown) | Klebsiella pneumoniae | agar dilution | 2146, NDM-1 |  | 2 µg/mL
CC1(C)S[C@@H]2[C@H](NC(=O)[C@H](NC(=O)C3=C(O)C(c4ccccc4F)NC3=O)c3ccccc3)C(=O)N2[C@H]1C(=O)O (stereo partly shown) | Escherichia coli | broth microdilution | Keio mutant JW0587-1 | 18 h, enterobactin-related gene | 25 µg/mL
CCCCCCCCCCCCCC(=O)N[C@H]1C(=O)N[C@@H](CN)C(=O)N[C@@H](CO)C(=O)N[C@@H](Cc2ccc(O)cc2)C(=O)O[C@H]1C | Staphylococcus aureus |  | SH1000 | added: phosphatidylglycerol, molar ratio 0.5 | 2 µg/mL
CC[C@H](C)[C@H](NC(=O)[C@H](CCCNC(=N)N)NC(=O)[C@H](CO)NC(=O)[C@H](Cc1ccc(O)cc1)NC(=O)[C@@H](NC(=O)[C@@H](NC(=O)[C@H](C)NC(=O)CNC(=O)[C@H](CCCCN)NC(=O)[C@H](CCCCN)NC(=O)CCNC(=O)CCCCCNC(=O)[C@H](CCCNC(=N)N)NC(=O)CCCCCNC(=O)[C@H](CCCNC(=N)N)NC(=O)[C@H](CCCNC(=N)N)NC(=O)CCCCCNC(=O)[C@H](CCCNC(=N)N)NC(=O)[C@H](CCCNC(=N)N)NC(=O)CCCCCNC(=O)[C@H](CCCNC(=N)N)NC(=O)[C@H](CCCNC(=N)N)NC(=O)CCCCCNC(=O)[C@@H](N)CCCNC(=N)N)C(C)C)[C@@H](C)O)C(=O)N[C@@H](CO)C(=O)NCC(=O)N[C@@H](CCC(N)=O)C(=O)N[C@@H](Cc1ccc(O)cc1)C(=O)N[C@@H](CCCCN)C(=O)O | Escherichia coli |  | ATCC 25922 |  | 6 µM
CC[C@H](C)[C@H](NC(=O)[C@H](C)NC(=O)CNC(=O)[C@H](C)NC(=O)[C@H](CCCCN)NC(=O)[C@H](CO)NC(=O)[C@H](C)NC(=O)[C@H](CCSC)NC(=O)CN)C(=O)N[C@@H](C)C(=O)NCC(=O)N[C@@H](CCCCN)C(=O)N[C@H](C(=O)N[C@@H](C)C(=O)N[C@@H](CCCCN)C(=O)N[C@H](C(=O)N[C@@H](C)C(=O)N[C@@H](CC(C)C)C(=O)N[C@@H](CCCCN)C(=O)N[C@@H](C)C(=O)N[C@@H](CC(C)C)C(N)=O)C(C)C)[C@@H](C)CC | Escherichia coli |  | 0370, ampicillin-resistant, minimal salts medium | 18 h, 37 °C | 2.5 µg/mL
C#CCOc1ccc(CN[C@@]2(C)C[C@H](O[C@H]3[C@H](Oc4c5cc6cc4Oc4ccc(cc4Cl)[C@@H](O)[C@@H](NC(=O)[C@@H](CC(C)C)NC)C(=O)N[C@@H](CC(N)=O)C(=O)N[C@H]6C(=O)N[C@H]4C(=O)N[C@H](C(=O)N[C@H](C(=O)NCC(N)=O)c6cc(O)cc(O)c6-c6cc4ccc6O)[C@H](O)c4ccc(c(Cl)c4)O5)O[C@H](CO)[C@@H](O)[C@@H]3O)O[C@@H](C)[C@H]2O)cc1OC | Enterococcus faecium | broth microdilution | vancomycin-resistant vanB, tryptic soy broth | 20 to 24 h, 37 °C, 0.002% polysorbate 80 | 32 µg/mL
